Published values gathered from unrelated publications.
Protocols differ between the studies behind these lines.
RET: Proto-oncogene tyrosine-protein kinase receptor Ret (RET, Homo sapiens, UniProt P07949)
Chain of UniProt P07949 (whole entry, unmodified, looked up): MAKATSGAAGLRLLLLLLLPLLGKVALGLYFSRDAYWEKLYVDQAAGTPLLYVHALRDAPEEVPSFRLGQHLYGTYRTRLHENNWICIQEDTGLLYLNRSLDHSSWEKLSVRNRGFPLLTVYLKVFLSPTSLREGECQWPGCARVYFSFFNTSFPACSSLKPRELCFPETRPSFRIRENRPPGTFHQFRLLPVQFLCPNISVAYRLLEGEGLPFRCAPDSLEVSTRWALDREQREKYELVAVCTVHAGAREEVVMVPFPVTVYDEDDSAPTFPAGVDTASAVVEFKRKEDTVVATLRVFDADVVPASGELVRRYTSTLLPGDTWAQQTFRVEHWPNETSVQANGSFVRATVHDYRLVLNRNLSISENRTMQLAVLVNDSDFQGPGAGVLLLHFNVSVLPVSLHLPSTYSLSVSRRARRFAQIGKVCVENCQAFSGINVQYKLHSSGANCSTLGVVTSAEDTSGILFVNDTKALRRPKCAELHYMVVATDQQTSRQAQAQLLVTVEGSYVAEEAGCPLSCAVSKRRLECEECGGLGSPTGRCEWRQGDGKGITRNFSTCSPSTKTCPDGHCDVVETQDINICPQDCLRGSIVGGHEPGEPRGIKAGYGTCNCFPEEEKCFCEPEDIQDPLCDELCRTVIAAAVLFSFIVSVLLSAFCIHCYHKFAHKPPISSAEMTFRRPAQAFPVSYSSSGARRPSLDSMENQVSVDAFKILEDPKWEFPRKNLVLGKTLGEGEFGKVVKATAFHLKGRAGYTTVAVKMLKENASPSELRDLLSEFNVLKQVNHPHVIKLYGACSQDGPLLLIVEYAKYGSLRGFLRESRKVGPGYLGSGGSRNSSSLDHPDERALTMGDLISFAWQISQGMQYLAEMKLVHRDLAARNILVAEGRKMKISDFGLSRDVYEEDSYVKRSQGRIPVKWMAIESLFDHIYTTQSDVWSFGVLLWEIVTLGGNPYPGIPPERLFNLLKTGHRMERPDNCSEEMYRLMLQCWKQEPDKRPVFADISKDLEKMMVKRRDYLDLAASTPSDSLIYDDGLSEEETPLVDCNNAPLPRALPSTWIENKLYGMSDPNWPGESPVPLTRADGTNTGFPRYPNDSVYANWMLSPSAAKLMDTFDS

Structure (SMILES) = CC(C)[C@H]1NC(=O)C[C@H]2/C=C/CCSSC[C@@H](NC1=O)C(=O)N[C@H](Cc1cccc3ccccc13)C(=O)NCC(=O)O2; target = RET (Homo sapiens, UniProt P07949, S891A); test = enzyme activity, inhibitor; conditions = 10 µM; quantity = inhibition; value = -3.8%
Structure (SMILES) = O=C(N[C@@H]1c2ccccc2C[C@H]1N1CCCC1)c1ccc(-c2ccnc3[nH]ccc23)nc1; target = RET; test = binding, competition with immobilised ligand; conditions = 3 µM; quantity = remaining binding; value = 9%
Structure (SMILES) = Nc1ccc(/C=C/C(=O)N2CCc3c(oc4c(-c5ccc(F)cc5)cc(-c5ccc(C(=O)N6CCC(F)(F)CC6)cn5)cc34)C2)cn1; target = RET; test = binding, competition with immobilised ligand; conditions = 1 µM; quantity = remaining binding; value = 96%
Structure (SMILES) = CN(/N=C/c1ccccc1C(=O)O)c1nc(-c2ccccc2Cl)cs1; target = RET; test = enzyme activity, inhibitor; conditions = 1 µM; quantity = inhibition; value = -8.14%
Structure (SMILES) = CCOC(=O)[C@@H]1Cc2c(cc([N+](=O)[O-])cc2[N+](=O)[O-])[C@H](O)[C@]12C(=O)Nc1ccc(Br)cc12; target = RET; test = binding, competition with immobilised ligand; conditions = 0.1 µM; quantity = remaining binding; value = 40%
Structure (SMILES) = C[C@H](NCc1ccc(-c2ccc(C(F)(F)F)cc2)cc1)C(N)=O; target = RET; test = cell-free assay, competition with immobilised ligand; conditions = 1 µM; quantity = inhibition; value = 13%
Structure (SMILES) = O=C1NC(=O)c2c1c1cc(F)c[n+]3c1c1c2c2cc(O)ccc2[n]1[Ru-4]312([N]=C=S)[S+]3CC[S+]1CC[S+]2CC3 (centres unmarked); target = RET; test = enzyme activity; conditions = 100 nM, human enzyme, together with: 10 µM ATP; scale = relative to: untreated; quantity = remaining activity; value = 9%
Structure (SMILES) = CS(C)(=O)=Nc1ccc(-c2ccc(-c3nc4cc(O[C@@H]5CO[C@H]6[C@@H]5OC[C@H]6O)[nH]c4cc3F)cc2)cc1; target = RET; test = enzyme activity, inhibitor; conditions = 10 µM; quantity = inhibition; value = 12%

Some of these lines once more:
Structure (SMILES) = CC(C)[C@H]1NC(=O)C[C@H]2/C=C/CCSSC[C@@H](NC1=O)C(=O)N[C@H](Cc1cccc3ccccc13)C(=O)NCC(=O)O2; target = RET (Homo sapiens, UniProt P07949, S891A); test = enzyme activity, inhibitor; conditions = 10 µM; quantity = inhibition; value = -3.8%
